Experimental data collected from several papers.
Each line is one published result; not all experiments were run side by side.

O=C1C(NCCc2ccc(O)cc2)=CC2=NCCc3c(Br)[nH]c1c32 — CC50 (HCT-116; cell growth or viability, MTT; 72 h): 5 µM
CC1(C)C(NC(=O)C(=NOC2(C(=O)O)CC2)c2csc(N)n2)C(=O)N1OS(=O)(=O)O (stereo not drawn) — CC50 (U-2940; cell growth or viability): > 100 µM
COc1c(Br)cc(CCNC2=CC3=NCCc4c[nH]c(c43)C2=O)cc1Br — CC50 (HCT-116; cell growth or viability, MTT; 72 h): 10 µM
COc1c(F)c(F)c(Cn2c3cc(=O)n(Cc4cccc(C(F)(F)F)n4)c(C)c3c(=O)n2-c2ncc(F)cc2F)c(F)c1F — CC50 (HEp-2; 48 (unit not given)): > 10 µM
O=C(O)c1ccc(Nc2c(-c3ccccc3)nc3cc(-c4ccccc4)ccn23)cc1 — CC50 (HCT-116; cell growth or viability; 72 h): 50 µM
O=C(Oc1cc(OC(=O)c2cc(O)c(O)c(O)c2)c2ccccc2c1)c1cc(O)c(O)c(O)c1 — CC50 (BEAS-2B; cell growth or viability, MTT; 48 h): 72.8 µM
COc1ccc(Cn2c3cc(=O)n(Cc4cccc(Cl)n4)c(C)c3c(=O)n2-c2ccccn2)cc1 — CC50 (HEp-2; 48 (unit not given)): > 50 µM
O=C1C(NCCc2ccc(O)c(Br)c2)=CC2=NCCc3c[nH]c1c32 — CC50 (HCT-116; cell growth or viability, MTT; 72 h): 4 µM
COc1ccc(Cn2c3cc(=O)n(Cc4cccc(Cl)n4)c(C)c3c(=O)n2-c2ncc(F)cc2F)cc1 — CC50 (HEp-2; 48 (unit not given)): > 45 µM
Cc1cccnc1-c1csc(C(=O)Nc2cc(Cl)cc(NS(C)(=O)=O)c2)c1 — CC50 (HLF; cell growth or viability, ATP luminescence; 10 days): > 10 µM
COc1ccc(Cn2c3cc(=O)n(Cc4cccc(C(F)(F)F)n4)c(C)c3c(=O)n2-c2ccccn2)cc1 — CC50 (HEp-2; 48 (unit not given)): > 5 µM
Cc1ccc(S(=O)(=O)n2cc3c4c2C(=O)C(NCCc2ccc(O)cc2)=CC4=NCC3)cc1 — CC50 (HCT-116; cell growth or viability, MTT; 72 h): 2 µM
